Measurements gathered from unrelated publications.
Protocols differ between the studies behind these lines. Several values in a cell are separate wells, animals, samples, runs or records. ± marks the error that the study gave.
UCHL1: Ubiquitin carboxyl-terminal hydrolase isozyme L1 (UCHL1, Homo sapiens, UniProt P09936)
ADRA2C: Alpha-2C adrenergic receptor (ADRA2C, Homo sapiens, UniProt P18825)
Voltage-dependent P/Q-type calcium channel subunit alpha-1A: Voltage-dependent P/Q-type calcium channel subunit alpha-1A (Homo sapiens, UniProt O00555)
TOP2B: DNA topoisomerase 2-beta (TOP2B, Homo sapiens, UniProt Q02880)
T1: RNA aptamer (Homo sapiens); chain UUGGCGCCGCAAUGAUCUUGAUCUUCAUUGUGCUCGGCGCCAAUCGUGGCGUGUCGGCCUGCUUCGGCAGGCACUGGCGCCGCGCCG; chain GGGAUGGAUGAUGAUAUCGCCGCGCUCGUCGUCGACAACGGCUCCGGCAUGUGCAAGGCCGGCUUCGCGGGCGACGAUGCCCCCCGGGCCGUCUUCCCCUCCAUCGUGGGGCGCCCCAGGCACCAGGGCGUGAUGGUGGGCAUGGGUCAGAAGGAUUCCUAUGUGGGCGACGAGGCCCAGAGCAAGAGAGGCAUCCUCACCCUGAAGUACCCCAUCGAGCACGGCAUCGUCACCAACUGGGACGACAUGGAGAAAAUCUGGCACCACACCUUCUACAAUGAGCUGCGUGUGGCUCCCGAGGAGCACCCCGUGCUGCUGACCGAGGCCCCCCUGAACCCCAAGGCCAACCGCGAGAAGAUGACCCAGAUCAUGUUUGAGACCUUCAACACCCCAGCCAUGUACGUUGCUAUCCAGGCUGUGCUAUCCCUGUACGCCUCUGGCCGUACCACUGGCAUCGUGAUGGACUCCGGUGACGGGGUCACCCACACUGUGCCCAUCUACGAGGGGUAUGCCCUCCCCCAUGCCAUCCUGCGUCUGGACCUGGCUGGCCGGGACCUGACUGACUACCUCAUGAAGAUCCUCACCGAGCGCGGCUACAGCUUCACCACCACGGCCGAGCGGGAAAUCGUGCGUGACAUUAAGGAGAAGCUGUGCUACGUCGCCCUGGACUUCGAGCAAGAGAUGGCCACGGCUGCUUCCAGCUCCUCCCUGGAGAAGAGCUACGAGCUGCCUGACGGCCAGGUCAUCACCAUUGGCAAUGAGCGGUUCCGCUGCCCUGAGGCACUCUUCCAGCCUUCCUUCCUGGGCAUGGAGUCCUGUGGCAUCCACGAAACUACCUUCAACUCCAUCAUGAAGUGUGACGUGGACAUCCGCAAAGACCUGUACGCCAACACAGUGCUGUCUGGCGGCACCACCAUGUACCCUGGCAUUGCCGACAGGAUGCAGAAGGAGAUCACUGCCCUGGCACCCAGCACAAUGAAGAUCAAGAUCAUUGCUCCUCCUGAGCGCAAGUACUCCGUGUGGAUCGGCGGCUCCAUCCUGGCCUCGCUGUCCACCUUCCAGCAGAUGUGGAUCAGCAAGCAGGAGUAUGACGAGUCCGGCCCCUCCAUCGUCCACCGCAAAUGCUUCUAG
T2: ssDNA, aptamer; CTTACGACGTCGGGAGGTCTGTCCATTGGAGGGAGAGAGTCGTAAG

SMILES	target or system	test	test system	conditions	how to read	quantity	value
c1coc(-c2n[nH]cc2-c2ccnc3ccccc23)c1	Histidine protein kinase NIK1 (NIK1, Candida albicans, UniProt Q5A599)	kinase binding, MIB/MS competition	Candida albicans lysate	10 µM	reference: DMSO, negative = stronger binding	log2 fold change	-0.12
COc1cc(Nc2ncc3c(n2)-c2ccc(Cl)cc2C(c2c(F)cccc2OC)=NC3)ccc1C(=O)O	PKN1	kinase activity	–	1 µM	–	remaining activity	94%
Nc1ncnc2c1ncn2[C@@H]1O[C@H](COP(=O)(O)OP(=O)(O)OP(=O)(O)O)[C@@H](O)[C@H]1O	Acyl-coenzyme A oxidase acox-1.1 (acox-1.1, Caenorhabditis elegans, UniProt O62140)	substrate, HPLC	–	200 µM, with: FAD, no acyl-CoA oxidase	–	hydrolysis rate	0.00583 s⁻¹
CCOc1ccccc1NC(=O)C(C#N)=Cc1c(F)cccc1F	UCHL1	covalent, intact protein LC-MS	–	12.5 µM	–	labelling	18.3%
O=S(=O)(NCc1coc2ccc(F)cc12)c1cc(Cl)cc(Cl)c1O	malate dehydrogenase	enzyme activity, inhibitor	–	200 µM, pH 7.0, 1% DMSO, aggregation counter-screen	–	remaining activity	74%
Cc1cc(-c2ccnc3[nH]cc(F)c23)cc(F)c1[C@@]1(O)[C@H](C)CN(C2CCS(=O)(=O)CC2)C[C@@H]1C	PIK3C3 (Homo sapiens, UniProt Q8NEB9)	ATP probe binding, KiNativ, item: ATP site	HEK293T cell lysate	1 µM	–	inhibition	48.2%
CC/C=C(\C)C=O	Uncharacterized protein PH0856 (Pyrococcus horikoshii, UniProt O58586)	substrate	–	pH 7, 30 °C, anaerobic, shaking 300 rpm, with: NADPH	–	conversion	40%
Cc1cc(Oc2ncccc2CN2CCN(c3cccc(Cl)c3Cl)CC2)ccc1-c1c(C)c(=O)[nH]c(=O)n1C	ADRA2C	binding, radioligand binding	–	with: [3H]rauwolscine	reference: Ki alpha2B over Ki alpha2C	selectivity ratio	5
Nc1nc2c(ncn2[C@@H]2O[C@H](COP(=O)(O)O)[C@@H](O)[C@H]2O)c(=O)[nH]1	GUK1 (Homo sapiens, UniProt Q16774, D103A)	enzyme activity, NADH-coupled	–	2000 µM	–	reaction rate	17.4 s⁻¹ and 16.4 s⁻¹ and 15.6 s⁻¹
C#CCCC1(CC[C@H](NC(=O)NCCCCCCNC(=O)NCCNC(=O)COc2cccc([C@@H](CCc3ccc(OC)c(OC)c3)OC(=O)[C@@H]3CCCCN3C(=O)C(=O)C(C)(C)CC)c2)C(N)=O)N=N1.O=C(O)C(F)(F)F	FKBP1A (Homo sapiens, UniProt P62942)	photoaffinity labeling, in-gel fluorescence, item: Alexa Fluor 647 click label	–	0.08 µM, UV irradiation 365 nm	reference: probe over FKBP12 signal, higher = more labeling	normalized labeling ratio	0.576
O=C(O)c1ccc(O)cc1	BEST1 (Homo sapiens, UniProt O76090)	whole-cell patch clamp	HEK293 transiently expressing channel	concentration not given, membrane potential 80 mV	–	current density	36.1 pA/pF and 29.9 pA/pF and 31.2 pA/pF and 52.2 pA/pF and 81.5 pA/pF and 30 pA/pF and 44.2 pA/pF
Cc1cc(Oc2ncccc2CN2CCN(c3ccccc3)CC2)ccc1-c1c(C)c(=O)[nH]c(=O)n1C	ADRA2C	binding, radioligand binding	–	with: [3H]rauwolscine	reference: Ki alpha2A over Ki alpha2C	selectivity ratio	5
COC(=O)C(C#N)=Cc1c(Oc2ccc(Cl)c(C)c2)nc2ccccn2c1=O	UCHL1	covalent, intact protein LC-MS	–	12.5 µM	–	labelling	10.7%
CCCCCCCCC(=O)c1cc(O)c(O)c(O)c1	HNF4A (Homo sapiens, UniProt P41235)	reporter gene, Gal4 hybrid reporter	–	10 µM	reference: vehicle	activation	1.15 fold
O=C1CC2(CCCC2)CC(=O)N1CCCCN1CCN(c2ncccn2)CC1	Voltage-dependent P/Q-type calcium channel subunit alpha-1A	ion current, antagonist, automated patch clamp	–	–	–	IC30	> 30000 nM
O=c1nc(SCc2cc(F)cc(C(F)(F)F)c2)nc(SCc2ccc3sccc3c2)[nH]1	TOP2B	decatenation	–	125 µM, replicate 2	–	decatenated DNA	0%
Cc1cc(Oc2ncccc2CN2CCN(Cc3ccccc3Cl)CC2)ccc1-c1c(C)c(=O)[nH]c(=O)n1C	ADRA2C	binding, radioligand binding	–	with: [3H]rauwolscine	reference: Ki alpha2A over Ki alpha2C	selectivity ratio	3
CN(CCO)c1cc2sc(/C=C(\C#N)c3ccc(C#N)cc3)cc2s1	T1, RNA aptamer (Homo sapiens)	fluorescence activation	–	–	–	binding	binds
Oc1ccc([C@@H]2c3c(O)cc(O)cc3[C@@H]3c4c(cc(O)c5c4[C@@H]2[C@H](c2ccc(O)cc2)[C@H]5c2cc(O)cc4c2[C@@H](c2cc(O)cc(O)c2)[C@H](c2ccc(O)cc2)O4)O[C@H]3c2ccc(O)cc2)cc1	Alpha-amylase 1A (AMY1A, Homo sapiens, UniProt P0DUB6)	enzyme activity	–	0.5 µM	–	Vmax	663 ± 80 µmol/min
O=C(NC1CCC1)c1ccc2nc(-c3cccc(NS(=O)(=O)NCCN4CCCCC4)c3)cn2c1	LRRK2 (Homo sapiens, UniProt Q5S007, G2019S)	enzyme activity	–	10 µM	–	remaining activity	94%
Cc1nc(CSc2nc(SCc3ccc(C(C)C)cc3)nc(=O)[nH]2)cs1	TOP2B	decatenation	–	7.8 µM	–	mean decatenated DNA	96.8%
CC#CC(=O)N1CCN(C(=O)C2(S(=O)(=O)c3ccc(Cl)cc3)CC2)CC1	UCHL1	covalent, intact protein LC-MS	–	12.5 µM	–	labelling	12.1%

SMILES	target or system	test	test system	conditions	how to read	quantity	value
CSc1ccc(CN2CCCC(CNC(=O)c3ccc(F)cc3)C2)cc1 (stereo not shown)	Trypanosoma cruzi	reporter translation, Renilla luciferase mRNA translation	cell-free extract	40 µM	reference: DMSO	inhibition	-6.5%
O=C(Cc1n[nH]c(=O)c2ccccc12)OCC(=O)N1CCN(c2ccccn2)CC1	TNKS (Homo sapiens, UniProt O95271)	enzyme activity, inhibitor	–	–	–	ligand efficiency	0.49
CC1CC1(C(=O)O)C(=O)NCc1cc(Cl)c2c(c1)OCCCO2 (stereo not shown)	malate dehydrogenase	enzyme activity, inhibitor	–	200 µM, pH 7.0, 1% DMSO, aggregation counter-screen	–	remaining activity	88%
Cc1ccc(OS(=O)(=O)c2ccc(C=O)cc2)cc1	UCHL1	covalent, intact protein LC-MS	–	12.5 µM	–	labelling	5.17%
CC[C@@H]1[C@H](F)C(=O)N[C@@H]1COc1nccc2cc(C(N)=O)c(OC)cc12	STK38L (Homo sapiens, UniProt Q9Y2H1)	ATP-site probe binding, ActivX profiling	THP-1 cell lysate	0.2 mM, Lys1 site	–	inhibition	12%
N[C@@H](CCC(=O)O)C(=O)O	glc-2 (Caenorhabditis elegans, UniProt Q17328, R340A/R342A/S341A/T283S)	two-electrode voltage clamp	Xenopus laevis oocytes	–	–	median current	0.6 µA
Nc1ncnc2c1ncn2[C@@H]1O[C@H](COP(=O)(O)OP(=O)(O)OP(=O)(O)O)[C@@H](O)[C@H]1O	T2, ssDNA, aptamer	ITC	–	–	–	Kd	1860 nM
Nc1ncnc2c1ncn2[C@@H]1O[C@H](COP(=O)(O)CP(=O)(O)OP(=O)(O)O)[C@@H](O)[C@H]1O	P2X purinoceptor 1 (P2RX1, Homo sapiens, UniProt P51575, K140A)	saturation binding	HEK293	103 nM	–	specific binding	4710 CCPM and 3280 CCPM and 7890 CCPM
O=C(O)C1CCCNC1 (stereo not shown)	SLC6A6 (Homo sapiens, UniProt P31641, Y138A)	binding, microscale thermophoresis	–	61 nM, room temperature, with: 50 nM labelled protein	higher = more binding	normalised MST signal	-0.00497
C[C@@H]1[C@H](O)[C@@H](C)/C=C/C=C/C=C/C=C/C=C/C=C/C=C/[C@H](O[C@@H]2O[C@H](C)[C@@H](O)[C@H](N)[C@@H]2O)C[C@@H]2O[C@](O)(C[C@@H](O)C[C@@H](O)[C@H](O)CC[C@@H](O)C[C@@H](O)CC(=O)O[C@H]1C)C[C@H](O)[C@H]2C(=O)O	Trypanosoma cruzi	reporter translation, Renilla luciferase mRNA translation	cell-free extract	40 µM	reference: DMSO	inhibition	93.9%
C=CC(=O)Nc1cccc(Oc2nc(Nc3ccc(N4CCN(C)CC4)cc3)nc3ccoc23)c1	Tyrosine-protein kinase BTK, activated (BTK, Homo sapiens, UniProt Q06187)	covalent inhibitor	–	–	–	kinact	0.00806 s⁻¹
N#CC(=Cc1cccc(O)c1)C(=O)NCc1ccco1	UCHL1	covalent, intact protein LC-MS	–	12.5 µM	–	labelling	13.2%
Cc1c(CC(=O)NCCc2cccc(F)c2)c(=O)oc2cc(O)cc(O)c12	B4GALT1 (Homo sapiens, UniProt P15291)	enzyme activity, inhibitor, UDP-Glo	–	10 µM	lower means stronger inhibition	luminescence	28900 a.u.
CCCN1C[C@H](CSC)C[C@@H]2c3cccc4[nH]cc(c34)C[C@H]21	Voltage-dependent P/Q-type calcium channel subunit alpha-1A	ion current, antagonist, automated patch clamp	–	–	–	IC30	25000 nM
Cc1ccccc1NC(=O)C(C#N)=Cc1cc2c(cc1[N+](=O)[O-])OCO2	UCHL1	covalent, intact protein LC-MS	–	12.5 µM	–	labelling	18%
C=CC(=O)N1CCC(COCC(=O)N2CCN(c3nc(-c4cnc(N)nc4C(F)F)nc(N4CCOC[C@@H]4C)n3)CC2)CC1	SRPK1 (Homo sapiens, UniProt Q96SB4)	KINOMEscan	–	1 µM	–	remaining binding	100%
CC12CC3CC(C)(C1)CC(N)(C3)C2	Voltage-dependent P/Q-type calcium channel subunit alpha-1A	ion current, antagonist, automated patch clamp	–	–	–	IC30	1780 nM
CCCCNC(=O)C(C#N)=Cc1ccncc1	UCHL1	covalent, intact protein LC-MS	–	12.5 µM	–	labelling	14.7%
Cc1cc2c(cc1N1C(=O)c3cccc4c(Cl)ccc(c34)C1=O)n(C)c(=O)n2C	Bromodomain-containing protein 4, BD1 (BRD4, Homo sapiens, UniProt O60885)	–	–	10 µM	–	delta Tm	0.8 °C
O=C(CCc1nncn1-c1ccccc1)NCc1nocc1C(=O)O	malate dehydrogenase	enzyme activity, inhibitor	–	200 µM, pH 7.0, 1% DMSO, aggregation counter-screen	–	remaining activity	95%
C=CC(=O)N1CCC[C@@H](n2nc(-c3ccc(Oc4ccccc4)cc3)c3c(N)ncnc32)C1	EPHA7 (Homo sapiens, UniProt Q15375)	–	–	0.1 µM	–	remaining activity	92.3%

Excerpt of the above:
SMILES	target or system	test	test system	conditions	how to read	quantity	value
CC1CC1(C(=O)O)C(=O)NCc1cc(Cl)c2c(c1)OCCCO2 (stereo not shown)	malate dehydrogenase	enzyme activity, inhibitor	–	200 µM, pH 7.0, 1% DMSO, aggregation counter-screen	–	remaining activity	88%
Cc1cc(Oc2ncccc2CN2CCN(Cc3ccccc3Cl)CC2)ccc1-c1c(C)c(=O)[nH]c(=O)n1C	ADRA2C	binding, radioligand binding	–	with: [3H]rauwolscine	reference: Ki alpha2A over Ki alpha2C	selectivity ratio	3
CCCN1C[C@H](CSC)C[C@@H]2c3cccc4[nH]cc(c34)C[C@H]21	Voltage-dependent P/Q-type calcium channel subunit alpha-1A	ion current, antagonist, automated patch clamp	–	–	–	IC30	25000 nM
c1coc(-c2n[nH]cc2-c2ccnc3ccccc23)c1	Histidine protein kinase NIK1 (NIK1, Candida albicans, UniProt Q5A599)	kinase binding, MIB/MS competition	Candida albicans lysate	10 µM	reference: DMSO, negative = stronger binding	log2 fold change	-0.12
